Experimental data pooled from the literature.
Compare with care: the assays were run in different laboratories. Numbers after ± are the reported error.

Structure (SMILES) | organism | assay | test system | setting | scale | quantity | value
COc1ccc(CNc2nc(N3CCC[C@H]3CO)ncc2C(=O)NN)cc1Cl | Salmonella typhimurium | – | TA98, TA100, TA1535, TA102, TA97a | 62.5 to 1000 µg/plate, 48 h, with and without S9 | reference: solvent control | revertants relative to solvent | ≤ 2
N=C(N)c1ccc(-c2ccc(-c3cccs3)s2)cc1 | Salmonella typhimurium | liquid broth OD | TA1535 | 12.5 µM, 15 h | reference: growth | viability | 92.1 ± 2.3%
Cc1cc(/C=C/C#N)cc(C)c1Oc1nc(NC2CCN(Cc3ccc(C(N)=O)cc3)CC2)nc2ncccc12 | HIV-1 | – | TZM-bl, NL4-3 wild type | – | reference: CC50 over EC50 | selectivity index | < 812
C=CCC1=C[C@@]2(C[C@@H](O)C(C)(C)O2)C2=C(C[C@H]3C[C@H]4C(=C)CCCC(C)(C)[C@@H]4C[C@@]3(C)O2)C1=O | coxsackievirus B3 | cytopathic effect | Vero, Nancy | – | reference: CC50 over IC50 | selectivity index | 1.7
COC(=O)c1ccc(CN2CCC(Nc3nc(Oc4c(C)cc(C#N)cc4C)c4ccccc4n3)CC2)cc1 | HIV-1 | – | TZM-bl, NL4-3 wild type | – | reference: CC50 over EC50 | selectivity index | > 8.45
N=C(N)c1ccc(-c2ccc(-c3ccco3)o2)nc1 | Salmonella typhimurium | liquid broth OD | TA1535 | 100 µM, 15 h | reference: growth | viability | 94.8 ± 4.8%
Cc1cc(C#N)cc(C)c1Oc1nc(NC2CCN(Cc3ccccc3C#N)CC2)nc2ccccc12 | HIV-1 | – | TZM-bl, NL4-3 wild type | – | reference: CC50 over EC50 | selectivity index | > 9.21
N#Cc1ccc(-c2ccc(-c3cccs3)s2)cc1 | Salmonella typhimurium | liquid broth OD | TA1535 | 100 µM, 15 h | reference: growth | viability | 108 ± 7.3%
COc1ccc(S(=O)(=O)Nc2ccc(NS(=O)(=O)c3ccc(OC)cc3)c3ccccc23)cc1 | Salmonella typhimurium | mini-Ames test | TA98 and TA100 | 100 µM, 90 min, with: S9 liver fraction | reference: vehicle control | revertant increase | > 2 fold
N#Cc1ccc(-c2ccc(-c3ccco3)o2)cc1 | Salmonella typhimurium | liquid broth OD | TA1535 | 50 µM, 15 h | reference: growth | viability | 108 ± 7.6%
Fc1ccc2c(c1)c1nc3ccc(Br)cc3c-1cn2Cc1cn(-c2ccccc2I)nn1 | Giardia duodenalis | – | – | – | reference: Caco-2 CC50 over Giardia IC50 | selectivity index | 37.2
Cc1cc(C#N)cc(C)c1Oc1nc(NC2CCN(Cc3ccc(Br)cc3)CC2)nc2ccccc12 | HIV-1 | – | TZM-bl, NL4-3 wild type | – | reference: CC50 over EC50 | selectivity index | > 6.69
N=C(N)c1ccc(-c2ccc(-c3cccs3)o2)nc1 | Salmonella typhimurium | liquid broth OD | TA1535 | 100 µM, 15 h | reference: growth | viability | 87.6 ± 8.7%
Cc1cc(C#N)cc(C)c1Oc1nc(NC2CCN(Cc3ccccn3)CC2)nc2ccccc12 | HIV-1 | – | TZM-bl, NL4-3 wild type | – | reference: CC50 over EC50 | selectivity index | > 15.9
C=CCC1=C[C@@]2(C[C@@H](O)C(C)(C)O2)C2=C(C[C@@H]3C[C@H]4[C@H](C[C@]3(C)O2)C(=C)CCCC4(C)C)C1=O | coxsackievirus B3 | cytopathic effect | Vero, Nancy | – | reference: CC50 over IC50 | selectivity index | 5.6
